# Measured values gathered from unrelated publications.
# Target: Dipeptidyl peptidase 4 (DPP4, Homo sapiens, UniProt P27487)
# Chain of UniProt P27487 (whole entry, looked up): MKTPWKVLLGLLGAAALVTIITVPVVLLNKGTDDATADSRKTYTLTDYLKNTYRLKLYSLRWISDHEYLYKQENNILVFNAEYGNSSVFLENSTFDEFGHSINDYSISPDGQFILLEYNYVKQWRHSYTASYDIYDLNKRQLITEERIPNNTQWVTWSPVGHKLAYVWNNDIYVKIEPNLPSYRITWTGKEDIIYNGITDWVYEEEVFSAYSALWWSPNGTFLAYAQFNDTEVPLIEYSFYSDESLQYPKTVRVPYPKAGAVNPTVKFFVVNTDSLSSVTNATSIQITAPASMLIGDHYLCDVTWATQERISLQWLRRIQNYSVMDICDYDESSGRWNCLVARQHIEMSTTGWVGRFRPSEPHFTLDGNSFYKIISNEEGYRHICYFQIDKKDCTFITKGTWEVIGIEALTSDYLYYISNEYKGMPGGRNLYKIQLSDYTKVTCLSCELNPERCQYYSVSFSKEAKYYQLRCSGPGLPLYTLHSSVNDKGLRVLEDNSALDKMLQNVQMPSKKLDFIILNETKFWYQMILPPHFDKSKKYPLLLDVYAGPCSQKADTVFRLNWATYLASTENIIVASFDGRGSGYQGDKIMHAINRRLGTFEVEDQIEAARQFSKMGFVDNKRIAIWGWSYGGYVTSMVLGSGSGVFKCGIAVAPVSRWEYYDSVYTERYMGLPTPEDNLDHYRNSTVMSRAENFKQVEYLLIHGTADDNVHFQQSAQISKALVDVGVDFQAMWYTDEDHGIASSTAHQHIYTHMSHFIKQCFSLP
# Mode: inhibitor
SMILES,effect on,method,quantity,result
CC(C)=CCN=C(N)NCCC[C@@H](NC(=O)CCCc1ccc(O)cc1)C(=O)N[C@@H](Cc1ccccc1)C(O)CC(=O)N[C@@H](Cc1ccc(O)cc1)C(=O)O (stereo in doubt),enzyme activity,,IC50,26 µM
NC(CC(=O)NN=Cc1ccc(F)c(F)c1)Cc1cc(F)c(F)cc1F (stereo not shown),enzyme activity,,IC50,10.6 µM
CC(C)NC(=O)NNS(=O)(=O)c1ccc2c(c1)n(C)c(=O)c(=O)n2C,enzyme activity,fluorescence,IC50,3.9e-05 µM
COc1cc(/C=C/C(=O)OC[C@H]2O[C@H](O[C@]3(CO)O[C@H](CO)[C@@H](OC(C)=O)[C@@H]3OC(=O)/C=C/c3ccc(O)c(OC)c3)[C@H](O)[C@@H](O)[C@@H]2O)ccc1O,enzyme activity,,IC50,63.3 µM
CC(=O)N[C@@H](CCCNC(=N)N)C(=O)NCCOCCOCC(=O)N[C@H](C)C(=O)N1CCC[C@H]1B(O)O,enzyme activity,fluorescence,Ki,6.1 µM
O=c1c2c(O)cc(O)cc2oc2oc3cc(O)ccc3c12,enzyme activity,,IC50,45.2 µM
NC(CC(=O)NN=Cc1c[nH]cn1)Cc1cc(F)c(F)cc1F (stereo not shown),enzyme activity,,IC50,24 µM
CCNC(=S)NNS(=O)(=O)c1ccc2c(c1)n(C)c(=O)c(=O)n2C,enzyme activity,fluorescence,IC50,6.8e-05 µM
N=C(N)NCCC[C@H](NC(=O)[C@H](Cc1ccccc1)NC(=O)CN)C(=O)O,enzyme activity,absorbance,IC50,959 µM
Cn1c(=O)c(=O)n(C)c2cc(S(=O)(=O)Nc3ccc(S(=O)(=O)Nc4nccs4)cc3)ccc21,enzyme activity,,IC50,0.000955 µM
CCC1(CC)C(=O)N(c2cccc(CN3CCN(Cc4ccc(Br)cc4)CC3)c2)C1=O,cell-free assay,,IC50,1.4 µM
COc1ccc(C=NNC(=O)CC(N)Cc2cc(F)c(F)cc2F)cc1OC (stereo not shown),enzyme activity,,IC50,34.3 µM
Cn1c(=O)c(=O)n(C)c2cc(S(=O)(=O)Nc3ccc(S(=O)(=O)Nc4ncccn4)cc3)ccc21,enzyme activity,fluorescence,IC50,0.00048 µM

# Excerpt of the above:
SMILES,effect on,method,quantity,result
CC(=O)N[C@@H](CCCNC(=N)N)C(=O)NCCOCCOCC(=O)N[C@H](C)C(=O)N1CCC[C@H]1B(O)O,enzyme activity,fluorescence,Ki,6.1 µM
COc1ccc(C=NNC(=O)CC(N)Cc2cc(F)c(F)cc2F)cc1OC (stereo not shown),enzyme activity,,IC50,34.3 µM
